{"data": "Results from different studies", "note": "Numbers after ± are the reported error."}
{"SMILES": "CCCCCCCCCCCCCC(=O)NCC(=O)N[C@@H](CCCNC(=N)N)C(=O)N[C@@H](Cc1c[nH]c2ccccc12)C(=O)N[C@@H](CCCCN)C(=O)N[C@H](C(=O)N[C@@H](Cc1ccccc1)C(=O)N[C@@H](CCCCN)C(=O)N[C@@H](CCCCN)C(=O)N[C@H](C(=O)N[C@@H](CCC(=O)O)C(=O)N[C@@H](CCCCN)C(=O)N[C@H](C(=O)NCC(=O)N[C@@H](CCC(N)=O)C(=O)N[C@@H](CC(N)=O)C(=O)N[C@H](C(=O)N[C@@H](CCCNC(=N)N)C(=O)N[C@@H](CC(=O)O)C(=O)NCC(=O)N[C@H](C(=O)N[C@H](C(=O)N[C@@H](CCCCN)C(=O)N[C@@H](C)C(=O)NCC(=O)N1CCC[C@H]1C(=O)N[C@@H](C)C(=O)N[C@H](C(=O)N[C@@H](C)C(=O)N[C@H](C(=O)N[C@H](C(=O)NCC(=O)N[C@@H](CCC(N)=O)C(=O)N[C@@H](C)C(=O)N[C@@H](C)C(=O)N[C@H](C(=O)N[C@H](C(N)=O)[C@@H](C)CC)[C@@H](C)O)C(C)C)C(C)C)C(C)C)C(C)C)[C@@H](C)CC)[C@@H](C)CC)C(C)C)[C@@H](C)CC)[C@@H](C)CC", "tested on": "Jurkat", "test": "western blot", "setting": "3 µM, 16 h", "measurement": "cleaved PARP", "result": "> 40%"}
{"SMILES": "CCCCCCCCOCc1cn(CC2=CC[C@@H]3C(C(=O)OC)=CO[C@@H](O)[C@H]23)nn1", "tested on": "SK-N-SH", "test": "neuroprotection, MTT", "setting": "0.075 µM, 24 h, added: 250 µM H2O2", "measurement": "viability", "result": "51.6 ± 1.4%"}
{"SMILES": "F[P-](F)(F)(F)(F)F.F[P-](F)(F)(F)(F)F.[Ru+2].c1ccc(-c2ccccn2)nc1.c1ccc(-c2ccccn2)nc1.c1csc(-c2ccc(-c3ccc(-c4cc5cccnc5c5ncccc45)s3)s2)c1", "tested on": "SK-MEL-28", "test": "cell viability", "setting": "visible light", "scale": "relative to: dark EC50 over light EC50", "measurement": "phototherapeutic index", "result": 400}
{"SMILES": "CC(C)C[C@@H]1NC(=O)[C@H](CCCNC(=N)N)NC(=O)[C@H](CCCCN)NC(=O)[C@H](CC(=O)O)NC(=O)[C@H](CCCCN)NC(=O)[C@@H](CO)NC1=O", "tested on": "Panc1_A8", "setting": "1 µM, 24 h", "scale": "relative to: vehicle", "measurement": "MMP-2 activity", "result": "decreased"}
{"SMILES": "COC(=O)C1=CO[C@@H](OC(C)=O)[C@@H]2C(Cn3cc(COCc4ccc(OC)c(OC)c4)nn3)=CC[C@H]12", "tested on": "SK-N-SH", "test": "neuroprotection, MTT", "setting": "0.3 µM, 24 h, added: 250 µM H2O2", "measurement": "viability", "result": "65.3 ± 0.21%"}
{"SMILES": "CN[C@@H](C)C(=O)N[C@H]1CN(C(=O)Cc2ccccc2)CC[C@H]2CC[C@@H](C(=O)NCc3ccc(C(F)(F)F)cc3)N2C1=O", "tested on": "SK-OV-3", "test": "TNFα-dependent cell killing, trypan blue", "setting": "1 µM, 48 h, added: TNFα-blocking antibody 2 µg/mL", "measurement": "cell death", "result": "inhibited"}
{"SMILES": "CC=C(C)C(=O)OC1C2C3(C)CCC(OC4CC(OC)C(OC5OC(C)C(OC6OC(CO)C(O)C(O)C6O)C(OC)C5O)C(C)O4)CC3CCC23OC32CCC(C(C)=O)C2(C)C1OC(C)=O (stereo not drawn)", "tested on": "MDA435/LCC6-MDR1", "test": "cell growth, MDR reversal, SRB", "setting": "10 µM, added: doxorubicin", "scale": "relative to: doxorubicin alone over combination", "measurement": "fold reversal of IC50", "result": 1}
{"SMILES": "CCN(Cc1ccccc1)C(=O)CCc1nc(CN2CCN(C(=O)Cc3ccc(OC)c(OC)c3)CC2)no1", "tested on": "KCNQ5 (Homo sapiens, UniProt Q9NR82)", "test": "potassium current, opener, whole-cell patch clamp", "system": "transfected cells", "setting": "30 nM, -10 mV", "measurement": "current density", "result": "19.8 ± 2.54 pA/pF"}
{"SMILES": "CCCC[C@H](NC(=O)CNC(=O)CNC(=O)c1ccc(NN)nc1)C(=O)N[C@H]1CC(=O)NCCCC[C@@H](C(N)=O)NC(=O)[C@H](Cc2c[nH]c3ccccc23)NC(=O)[C@H](CCCNC(=N)N)NC(=O)[C@@H](Cc2ccccc2)NC(=O)[C@H](Cc2c[nH]cn2)NC1=O [technetium-99m labelled]", "system": "C57 mouse, B16/F1 melanoma, blood", "setting": "2 h, added: NDP-MSH 6.07 nmol blockade", "measurement": "uptake", "result": "0.24 ± 0.07 %ID/g"}
{"SMILES": "COC(=O)C1=CO[C@@H](OC(C)=O)[C@@H]2C(Cn3cc(CCCCN4C(=O)c5ccccc5C4=O)nn3)=CC[C@H]12", "tested on": "SK-N-SH", "test": "neuroprotection, MTT", "setting": "0.3 µM, 24 h, added: 250 µM H2O2", "measurement": "viability", "result": "60.5 ± 0.7%"}
{"SMILES": "Cc1ccc2c(Nc3ccc4ccccc4n3)c3c(nc2c1)CCCC3", "tested on": "SH-SY5Y", "test": "MTT", "setting": "50 µM, 1 h pretreatment, 10% FBS, added: H2O2", "measurement": "viability", "result": "57.5 ± 4.36%"}
{"SMILES": "CN[C@](C)(C[18F])C(=O)O", "tested on": "SK-OV-3 tumour model", "system": "host not given, heart", "setting": "2 h, tumour-bearing", "measurement": "tracer uptake", "result": "2.4 %ID/g"}
{"SMILES": "N=C(N)NCCC[C@@H]1NC(=O)[C@H](CCCCNC(=O)CCOCCOCCOCCOCCNC(=O)CN2CCN(CC(=O)O)CCN(CC(=O)O)CCN(CC(=O)O)CC2)NC(=O)[C@@H](Cc2ccccc2)NC(=O)[C@H](CC(=O)O)NC(=O)CNC1=O [indium-111 labelled]", "system": "athymic nude mice, female, U-87 MG glioma xenograft, tumour and liver", "setting": "intravenous, 72 h", "scale": "relative to: tumour over liver", "measurement": "tumour to tissue ratio", "result": "2.22 ± 0.48"}
{"SMILES": "COC(=O)C1=CO[C@@H](O)[C@@H]2C(Cn3cc(C4(O)CCCC4)nn3)=CC[C@H]12", "tested on": "SK-N-SH", "test": "neuroprotection, MTT", "setting": "0.3 µM, 24 h, added: 250 µM H2O2", "measurement": "viability", "result": "78.2 ± 0.9%"}
{"SMILES": "CC(C)CC(O)(CC(C)C)c1cn(C(=O)N2CCCC2)nn1", "tested on": "mouse T-cells", "test": "SILAC proteomics, measured: NDRG1", "setting": "1 nM, 6 h, unit not given", "scale": "relative to: DMSO", "measurement": "protein level", "result": "0.98 ± 0.01"}
{"SMILES": "[Cl][Ag].[Se]=c1n(C2CCCCC2)ccn1C1CCCCC1", "tested on": "LoVo MDR", "test": "MTT", "scale": "relative to: LoVo MDR over LoVo", "measurement": "resistance factor", "result": 1.5}
{"SMILES": "CCCCCCCCC(=O)NCc1ccc(O)c(OC)c1", "tested on": "mouse mAb 1-D6", "test": "antibody binding, indirect competitive ELISA", "setting": "added: coating antigen 5-OVA", "measurement": "IC50", "result": "0.223 µg/mL"}
{"SMILES": "COC(=O)C1=CO[C@@H](OC(C)=O)[C@@H]2C(Cn3cc(CCO[Si](C)(C)C(C)(C)C)nn3)=CC[C@H]12", "tested on": "SK-N-SH", "test": "neuroprotection, MTT", "setting": "0.15 µM, 24 h, added: 250 µM H2O2", "measurement": "viability", "result": "68.6 ± 0.15%"}
{"SMILES": "O=C(c1ccc2ccccc2c1)c1cn(-c2ccccc2)nc1C1=Nn2c(Cc3nnc4n3N=C(c3nn(-c5ccccc5)cc3C(=O)c3ccc5ccccc5c3)CS4)nnc2SC1", "tested on": "MCF7 cells", "test": "annexin V/PI flow cytometry", "setting": "IC50, 48 h", "measurement": "necrotic cells", "result": "7.35%"}
{"SMILES": "COc1cc2c3cc1Oc1cc(ccc1O)CC1c4c(cc(OC)c(O)c4Oc4ccc(cc4)CC3N(C)CC2)CCN1C (stereo not drawn)", "tested on": "HEK293", "scale": "relative to: CC50 HEK293 over INDO IC50", "measurement": "selectivity index", "result": 204}
{"SMILES": "N=C(N)NCCC[C@@H]1NC(=O)[C@H](CCCCNC(=O)CNC(=O)CNC(=O)CNC(=O)CC[C@H](NC(=O)CCOCCOCCOCCOCCNC(=O)CC[C@H](NC(=O)CN2CCN(CC(=O)O)CCN(CC(=O)O)CCN(CC(=O)O)CC2)C(=O)NCCOCCOCCOCCOCCC(=O)N[C@@H](CCC(=O)NCC(=O)NCC(=O)NCC(=O)NCCCC[C@@H]2NC(=O)[C@@H](Cc3ccccc3)NC(=O)[C@H](CC(=O)O)NC(=O)CNC(=O)[C@H](CCCNC(=N)N)NC2=O)C(=O)NCC(=O)NCC(=O)NCC(=O)NCCCC[C@@H]2NC(=O)[C@@H](Cc3ccccc3)NC(=O)[C@H](CC(=O)O)NC(=O)CNC(=O)[C@H](CCCNC(=N)N)NC2=O)C(=O)NCC(=O)NCC(=O)NCC(=O)NCCCC[C@@H]2NC(=O)[C@@H](Cc3ccccc3)NC(=O)[C@H](CC(=O)O)NC(=O)CNC(=O)[C@H](CCCNC(=N)N)NC2=O)NC(=O)[C@@H](Cc2ccccc2)NC(=O)[C@H](CC(=O)O)NC(=O)CNC1=O [indium-111 labelled]", "system": "athymic nude mice, female, U-87 MG glioma xenograft, tumour and muscle", "setting": "intravenous, 1 h", "scale": "relative to: tumour over muscle", "measurement": "tumour to tissue ratio", "result": "10.4 ± 1.75"}
{"note": "For quick reference, copied from above:"}
{"SMILES": "N=C(N)NCCC[C@@H]1NC(=O)[C@H](CCCCNC(=O)CCOCCOCCOCCOCCNC(=O)CN2CCN(CC(=O)O)CCN(CC(=O)O)CCN(CC(=O)O)CC2)NC(=O)[C@@H](Cc2ccccc2)NC(=O)[C@H](CC(=O)O)NC(=O)CNC1=O [indium-111 labelled]", "system": "athymic nude mice, female, U-87 MG glioma xenograft, tumour and liver", "setting": "intravenous, 72 h", "scale": "relative to: tumour over liver", "measurement": "tumour to tissue ratio", "result": "2.22 ± 0.48"}
{"SMILES": "COC(=O)C1=CO[C@@H](O)[C@@H]2C(Cn3cc(C4(O)CCCC4)nn3)=CC[C@H]12", "tested on": "SK-N-SH", "test": "neuroprotection, MTT", "setting": "0.3 µM, 24 h, added: 250 µM H2O2", "measurement": "viability", "result": "78.2 ± 0.9%"}
